Experimental data of several laboratories.
A part holds a random share of what one study measured.
Chain of UniProt P16234 (whole entry, looked up): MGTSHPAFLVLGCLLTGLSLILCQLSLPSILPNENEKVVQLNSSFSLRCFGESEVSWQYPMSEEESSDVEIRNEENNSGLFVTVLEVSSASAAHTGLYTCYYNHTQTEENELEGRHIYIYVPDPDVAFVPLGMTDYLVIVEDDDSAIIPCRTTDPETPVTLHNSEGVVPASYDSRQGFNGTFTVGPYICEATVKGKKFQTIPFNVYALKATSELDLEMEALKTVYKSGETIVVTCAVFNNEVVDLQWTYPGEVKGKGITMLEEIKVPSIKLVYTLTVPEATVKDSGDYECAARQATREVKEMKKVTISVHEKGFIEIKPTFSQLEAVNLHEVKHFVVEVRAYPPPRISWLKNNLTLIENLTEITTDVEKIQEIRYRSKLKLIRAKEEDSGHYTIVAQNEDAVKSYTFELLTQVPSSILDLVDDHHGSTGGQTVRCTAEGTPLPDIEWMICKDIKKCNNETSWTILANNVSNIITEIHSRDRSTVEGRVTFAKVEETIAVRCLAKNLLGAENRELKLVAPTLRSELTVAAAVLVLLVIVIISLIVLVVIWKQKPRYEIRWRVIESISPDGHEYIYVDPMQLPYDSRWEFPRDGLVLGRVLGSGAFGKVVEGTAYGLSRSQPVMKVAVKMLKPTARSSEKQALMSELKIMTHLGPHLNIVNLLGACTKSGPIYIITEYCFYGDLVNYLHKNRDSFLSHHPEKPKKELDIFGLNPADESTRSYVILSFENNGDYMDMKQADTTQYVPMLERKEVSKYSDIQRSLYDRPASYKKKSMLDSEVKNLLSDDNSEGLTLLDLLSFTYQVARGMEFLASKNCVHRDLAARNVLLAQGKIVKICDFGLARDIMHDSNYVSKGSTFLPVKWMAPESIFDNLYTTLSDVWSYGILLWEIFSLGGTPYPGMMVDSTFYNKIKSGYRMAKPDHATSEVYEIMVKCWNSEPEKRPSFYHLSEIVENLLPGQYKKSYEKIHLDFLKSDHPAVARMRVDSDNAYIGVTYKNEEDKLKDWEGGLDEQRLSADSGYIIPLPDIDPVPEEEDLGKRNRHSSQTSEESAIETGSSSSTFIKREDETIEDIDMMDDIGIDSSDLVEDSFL

Set 1
Target: Fragile X messenger ribonucleoprotein 1, C-terminal low-complexity region (Fmr1, Mus musculus, UniProt P35922)
Method: RNA Bind-n-Seq
Molecule type: RNA
Medium: in vitro
Tested at: 200 nM
Notes: whole 134-nt RNA, ends assumed
Together with: 150 mM KCl
Relative to: input library
Direction: higher = stronger binding
Shared flanks, not repeated: GGGAGUUCUACAGUCCGACGAUC … UGGAAUUCUCGGGUGUCAAGG
Strand | log2 enrichment
ACCAUGCAGGUGGGCAUCUUUGGGAAGUGGGGCAAGGGGGGGAUAGGGAGGGGGGUAACACUUUUGGAACAGGUGGUCCCAGGUCGUUUC | 0.98
CACAGACAACACGCACCCACACAGACACAGAGAAAAGGGGUUGGGAUGGGGACAGGGUGCACAGCAGGGCGGGGUAGGACCCCAGCCCCU | 1.23
CAAGUCCUGUGCUACACAUCGUAUGUACCGAAUCGGGCCCGGGGCCCGGGGCCCGGAAAGUAUUAUGUUACGCCGUUCGGAUCUGCACUU | -0.528
AGUCCUGUGCUACACAUCGUAUGUACCGAAUCGGGAAAAAGGGUUUUUGGGAAAGGGAAAGUAUUAUGUUACGCCGUUCGGAUCUGCACU | -0.0445
UGACCCUGGUGGCAUGCGGGGAGGAAGAGGUGGCCUCAUGGAUCGUGGUGGUCCCGGUGGAAUGUUCAGAGGUGGCCGUGGUGGAGACAG | 0.171
UGGGAGGUGGAUUUUGUUUAUUUUUUUAGCUCAUUUCCAGGGGUGGGAAUUUUUUUUUAAUAUGUGUCAUGAAUAAAGUUGGUUUUGAAA | 0.251
UCAAGUCCUGUGCUACACAUCGUAUGUACCGAAUCGGGAAAGGGUGGGUUUGGGAAAGUAUUAUGUUACGCCGUUCGGAUCUGCACUUCC | 1.26
AAUGUGUCCUCCCUGUCCAAAUUGGGAAUGACUUAAUGUCAAUUUGUUUGUUGGUUGUUUUAAUAAUACUUCCUUAUGUAGCCAUUAAGA | -0.194

Set 2
Target: Prothrombin, mature alpha-thrombin (F2, Homo sapiens, UniProt P00734)
Method: aptamer microarray, sandwich
Molecule type: DNA with 2'F-ANA
Medium: in vitro
Tested at: 200 nM
Notes: whole 15-mer aptamer, many near background
Together with: Cy3 exosite-II aptamer, 400 nM
Direction: higher = stronger binding
Strand: GGTTGGTGTGGTTGG
Modification | mean fluorescence intensity [a.u.]
2'F-ANA at 5 8 9 11 15 | 65.1
2'F-ANA at 1 3 4 8 9 11 13 14 | 58.6
2'F-ANA at 1 2 5 6 9 10 11 13 14 15 | 52.4
2'F-ANA at 3 4 5 9 11 12 13 | 107
2'F-ANA at 1 2 3 5 6 7 11 13 14 15 | 48.9
2'F-ANA at 3 4 8 10 14 15 | 190
2'F-ANA at 1 3 7 8 11 13 14 | 102
2'F-ANA at 2 7 12 13 | 647

Set 3
Target: RING finger protein unkempt homolog, zinc fingers 1-6, GST-SBP tag (UNK, Homo sapiens, UniProt Q9C0B0, residues 30-357)
Method: RNA Bind-n-Seq
Molecule type: RNA
Medium: in vitro
Tested at: not given
Notes: RNA with constant flanks, human-mouse chimeric sites, ends assumed
Relative to: input RNA pool
Direction: higher = stronger binding
Shared flanks, not repeated: GGGAGUUCUACAGUCCGACGAUC … CAACAGAGGAUUGAGCAUCA
Construct (chain): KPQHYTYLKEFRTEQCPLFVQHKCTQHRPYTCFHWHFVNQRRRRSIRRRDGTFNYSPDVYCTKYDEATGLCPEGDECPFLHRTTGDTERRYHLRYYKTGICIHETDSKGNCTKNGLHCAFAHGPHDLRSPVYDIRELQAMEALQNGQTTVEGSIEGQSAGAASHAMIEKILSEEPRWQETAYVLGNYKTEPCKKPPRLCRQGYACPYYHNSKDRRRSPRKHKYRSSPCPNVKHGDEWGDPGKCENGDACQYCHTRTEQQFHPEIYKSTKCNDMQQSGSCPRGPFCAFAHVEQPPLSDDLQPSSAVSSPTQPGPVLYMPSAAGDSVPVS
Strand | bound/input enrichment
CUGGCCUGGCCCUCCCCAGGGGCCUCCUUCUCUGCAUUCACUGCUUCUGCAUCAGAUACUUUCAGCUGCAACUCCCUACUGGGUGGGGCACCUAUCUCAGGCAGAAGGUUUUGGUACCCU | 0.171 ratio
CACACCCUCUUCUGCGGGACCCUCAUCUUGCAGGCCCGGGCCUAUGUGGGACCCCGUGUCCUGGCAGUGGUGACCCGCACAGGGUUCUGCACGGCAAAAGGGGGCCUGGUGAGCUCCAUC | 0.0888 ratio
UAAGUUAAGCUUUUAAUCUUUGUAAAUUCUUAACAUUAAUUUGUAAACAUGUUUAUUUUGUUUGGGUAAUUUGGUUCAUUAAGUACAUAGCUAAGGUAAUGAACAUCUUUUUCAGUAAUU | 0.393 ratio
AUUGUUGAAGCGAAUCCACUCCUAGAAGCAUUUGGAAAUGCAAAGACUGUUCGCAACAAUAAUAGCAGUCGAUUUGGAAAAUUUGUAGAAAUUCAUUUCAAUGAAAAGAGCUCAGUUGUU | 0.152 ratio
AAUUUCCUGUCAUACUUUUUAGACAUUGCCAUAGGUAUUACAGAGCACCUGGCCACAUUCUAGGUUUGUGUUAUUUCUAAGCCUUUUAUAUGAUCAAAUGAGAACACUGCUUAACUAAUG | 0.983 ratio
GCAGGAUCUUCUAAGUACCAGUGGGACAUUAUGAAAUCCCUUGGGCUCUCUGAUGACGACAUAGUGAAGUUUUCUGAAGCAGAACAUUGGCUUGAUUAUUUCCCGCCACUGGCCGUUCAG | 0.187 ratio
UUGCCUGAGAACGAGGAUGAGCUGGAGAGCACCAACAGGCGCUACACCAAGAGAGACUGCAGCACUUUCCUCAGAACUAGUGAGACGGGCAUCGUGGACCAGGUCAUGGUCACUCUCAAC | 0.151 ratio
GUGACUGGUGUUAAGAUUUCCCCUCAGCAAAGAAGUGCAGUAGUCACCAUAAUUCCAUCUGUGGUGAGUGCCAGUCAGAUAAAAGAGCUGGUCCCAGACCUCAGUUUAGACAUGGGAACU | 0.273 ratio

Further values, each from its own experiment
SMILES | target | test | conditions | scale | endpoint | result
CCN(CC)CCCCN1c2ccccc2Oc2ccc(Cl)cc21 | Platelet-derived growth factor receptor alpha (PDGFRA, Homo sapiens, UniProt P16234) | enzyme activity, inhibitor | 0.5 µM | relative to: control | remaining activity | 102%

Excerpt of the above (set 3):
Strand | bound/input enrichment
AUUGUUGAAGCGAAUCCACUCCUAGAAGCAUUUGGAAAUGCAAAGACUGUUCGCAACAAUAAUAGCAGUCGAUUUGGAAAAUUUGUAGAAAUUCAUUUCAAUGAAAAGAGCUCAGUUGUU | 0.152 ratio
AAUUUCCUGUCAUACUUUUUAGACAUUGCCAUAGGUAUUACAGAGCACCUGGCCACAUUCUAGGUUUGUGUUAUUUCUAAGCCUUUUAUAUGAUCAAAUGAGAACACUGCUUAACUAAUG | 0.983 ratio
GCAGGAUCUUCUAAGUACCAGUGGGACAUUAUGAAAUCCCUUGGGCUCUCUGAUGACGACAUAGUGAAGUUUUCUGAAGCAGAACAUUGGCUUGAUUAUUUCCCGCCACUGGCCGUUCAG | 0.187 ratio
